# Measurements of several laboratories.
# Numbered parts are unrelated; each lists some results of a single study.

# Block 1 — method: RNA Bind-n-Seq; molecule type: RNA; sample: in vitro; concentration: 200 nM; notes: whole 134-nt RNA, ends assumed; added: 150 mM LiCl; relative to: input library; direction: higher = stronger binding; library: 7-deaza-guanosine replaces G
# Target: Ras GTPase-activating protein-binding protein 1, full length (G3BP1, Homo sapiens, UniProt Q13283)
# Chain of UniProt Q13283 (whole entry, looked up): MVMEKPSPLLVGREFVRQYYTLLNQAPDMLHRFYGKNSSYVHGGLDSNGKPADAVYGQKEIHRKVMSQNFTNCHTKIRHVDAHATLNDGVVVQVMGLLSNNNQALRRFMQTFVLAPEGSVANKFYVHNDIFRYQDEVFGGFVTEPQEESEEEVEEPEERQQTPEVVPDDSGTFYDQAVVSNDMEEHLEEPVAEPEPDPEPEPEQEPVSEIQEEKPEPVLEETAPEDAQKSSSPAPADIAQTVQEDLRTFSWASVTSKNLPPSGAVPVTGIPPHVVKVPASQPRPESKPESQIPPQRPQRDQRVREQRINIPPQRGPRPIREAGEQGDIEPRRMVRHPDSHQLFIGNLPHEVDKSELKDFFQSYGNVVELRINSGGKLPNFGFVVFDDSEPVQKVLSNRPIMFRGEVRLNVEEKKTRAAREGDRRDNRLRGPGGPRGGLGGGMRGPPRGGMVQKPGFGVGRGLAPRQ
# Shared flanks, not repeated: GGGAGUUCUACAGUCCGACGAUC … UGGAAUUCUCGGGUGUCAAGG
Oligonucleotide,log2 enrichment
CACAGACAACACGCACCCACACAGACACAGAGGGAAGGGGUUGGGAUGGGGACAGGGUGCACAGCAGGGCGGCGUAGGACCCCAGCCCCU,0.173
UCAAGUCCUGUGCUACACAUCGUAUGUACCGAAUCGGAGGAAAAAGGAAAAAGGAAAGUAUUAUGUUACGCCGUUCGGAUCUGCACUUCC,-0.425
CAAGUCCUGUGCUACACAUCGUAUGUACCGAAUCGGCCCCGGCCCCGGCCCCGGGGAAAGUAUUAUGUUACGCCGUUCGGAUCUGCACUU,-0.182
UAACUUUAGAGGAGGAUCUGAUGGAUAUGGCAGUGGAAGUGGAUUUGGGGAUGGCUAUAAUGGGUAUGGAGGAGGACCUGGAGGUGGCAA,-0.036
GUCCUGUGCUACACAUCGUAUGUACCGAAUCGGGGUUUUUGGGUUUUUGGGGUUUUUGGAAAGUAUUAUGUUACGCCGUUCGGAUCUGCA,-0.0509
UCCUCAAGUCCUGUGCUACACAUCGUAUGUACCGAAUCGGAGGGGAGGAGGAAAGUAUUAUGUUACGCCGUUCGGAUCUGCACUUCCAGC,-1.42
UACUCAGCACAGAAAUUCAGGAGACACAGACAAGUUCUUCCACGAUGUCGUACAGACGAGAACUAGAGAAAUACCGUGACCUGGAUGAAG,-0.325
CACAGACAACACGCACCCACACAGACACAGAGGGAAGGGGUUGGGAUGGGGACAGGGUGCACAGCUGGGCGGGGUAGGACCCCAGCCCCU,-0.346
UGGAGGAGCCAUAGAAUAUUAAGGAUGAAUUCAGGAAGGCCUGAGACCAUGGAAAACUUGCCUGCUCUCUACACUAUUUUCCAAGGAGAG,-0.575
UGGCCCUGGUGGCAUGCGGGGAGGAAGAGGUGACCUCAUGGAUCGUGGUGGUCCCGGUGGAAUGUUCAGAGGUGGCCGUGGUGGAGACAG,0.371
UCCUGUGCUACACAUCGUAUGUACCGAAUCGGGGUUUUUGGGGAGGGGAAAAAAAGGGGAAAGUAUUAUGUUACGCCGUUCGGAUCUGCA,-0.0801

# Block 2 — method: protein binding microarray; molecule type: double-stranded DNA, one strand shown; sample: in vitro; concentration: not given; relative to: not given; direction: higher = stronger binding
# Target: Histone acetyltransferase KAT6A, both winged helices, GST fusion (KAT6A, Homo sapiens, UniProt Q92794, residues 1-181)
# Notes: 8-mer, flanks averaged, mean of 2 arrays, mostly near background
# Target sequence (chain): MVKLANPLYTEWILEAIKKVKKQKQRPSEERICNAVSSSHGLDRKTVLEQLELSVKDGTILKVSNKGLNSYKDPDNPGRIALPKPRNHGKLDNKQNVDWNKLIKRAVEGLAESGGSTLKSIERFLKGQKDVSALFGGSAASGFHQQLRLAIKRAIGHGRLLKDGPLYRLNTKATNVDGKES
Oligonucleotide,E-score
AGCGCTTC,0.293
AGTTATTC,-0.0523
ATAATTCC,-0.0802
ATGGTCGC,0.165
CACATTCA,-0.185
ACCATGTC,0.0505
TCGACGCA,0.13
CAATCTAA,-0.058
GAAATAAC,-0.06
TGCCGGCA,0.356
CTAGGTGC,-0.0374
ACCAGCAT,-0.217
GTTCTAAA,-0.0173
CTACATTC,-0.0689
CTGTGATC,-0.104
AATGTCTA,-0.0774
AGACTTAA,-0.0655
AGGCGGGA,0.186
TACCTCAA,-0.136
CGGTAAAG,0.235
CTCCGGAA,0.0565
CCGGCGTC,0.278
CCAGCAGC,-0.197
CTTAGAGC,-0.0503
AATGGAGG,-0.142

# Block 3 — method: protein-binding microarray; molecule type: double-stranded DNA, one strand shown; sample: in vitro; concentration: 940 nM top; notes: 60-bp whole probe; added: salmon DNA 0.4 mg/ml; relative to: random background probes; direction: higher = stronger binding; shared flanks, not repeated: GCCTAGCAC … GTCTTGATTCGCTTGACGCTGCTG
# Target: Interferon regulatory factor 5, full length, phosphomimetic (IRF5, Homo sapiens, UniProt Q13568-2, residues 1-514, S451D/S453D/S456D/S462D)
Oligonucleotide,fitted relative affinity [z-score]
TTAAGACTGGGACTGGGTTAGTGCTAG,-0.567
TTAGGTTTCGACTTCCGGTTAGTGCTA,9.32
GACGGTTTCGGTTTCGTGACGTGCTAG,13
GACGATTCCCGTTTCGAGACGTGCTAG,1.72
TCAGGTATCGGTATCGGTTAGTGCTAG,10.4
GTTGGGGCGGGGCGGGGTGGGTGCTAG,3.2
CTCCATGAACAGGGCTGATGGTGCTAG,-0.211
TTAGGACTGGGTATCGGTTGGTGCTAG,3.52
GACGATTGCAGACTGGAGACGTGCTAG,-0.491
GACGGTTTCCTACTGCTGCCGTGCTAG,0.892
TCAATTCTCTTTTCACTACTGTGCTAG,2.15
TTAGGTATCCTTTTCCTTCAGTGCTAG,0.732
GACGGACTGCCTTTCCTGACGTGCTAG,-0.219
TTAGGTTTCGGGATTCGGTTAGTGCTA,8.76
TTAGGTTTCAGTTCCGATTAGTGCTAG,7.39
TCATACATGTGTTTAAAACTGTGCTAG,0.0311
TCAATTTTGCTTTCATTACTGTGCTAG,1.82
TTACGTTTCGGTTCCGGTTAGTGCTAG,9.93
ATTGTCTTCCCCATCTTGTTGTGCTAG,1.55
GACGGCATCGGACTGGGGACGTGCTAG,-0.342
TGGGTCTTGGTTCTCAGCTTGTGCTAG,0.586
TAGAACTTCTCCACTGAATGAGTGCTA,0.104
TTAGGGCTGGGGTTTCGGTTAGTGCTA,5.99
GACGAACTGAGTACCGAGACGTGCTAG,-0.105
GATGATCTCAGTTTCGAGACGTGCTAG,3.83

# Block 4 — method: RNA Bind-n-Seq; molecule type: RNA; sample: in vitro; concentration: 365 nM; relative to: no-protein control; direction: higher = stronger binding
# Target: RNA binding protein fox-1 homolog 2, RRM domain, GST-SBP tag (RBFOX2, Homo sapiens, UniProt O43251-10, residues 100-194)
# Notes: natural RNA segment, single round, ends assumed
# Shared flanks, not repeated: GGGAGUUCUACAGUCCGACGAUC … UGGAAUUCUCGGGUGCCAA
# Residues (chain): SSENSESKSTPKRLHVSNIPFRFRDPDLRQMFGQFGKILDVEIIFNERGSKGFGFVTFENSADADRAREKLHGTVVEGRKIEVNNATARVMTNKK
Oligonucleotide,RBNS enrichment (R)
GACAGCUUGGGUGUGAAUGGCAAGACAGUAGAUGAGUCUGGUUAAGCGAGGUCAGACAUCCACCAGAAUCAACUCAGCCUCAGGCAUCCAAAGCCACAUCACAGUCGGUG,0.497
UAUGUCUCCAGUUGGCAGCUUGAGAUAUUUCCGAGCAUCCGGUUCUAGCUACCAGUGCCUCCCAAUGCUUAGUGCACAGUACUGUAGACUGGCCAUCACCCCUCUCCUUG,0.372
CCCUCAAAGAGUCUAAAACGUCUCAUUUUUUUUUACCACGUCCUCCCCAGUAAGAAGCCAAGGUACAACUCAUUGUACCUACGAGGUACAAACUCAUUUGUAGAAACAAA,0.5
UGUGAAACAGUGUGCUGUGUUUUGUACAAAGAUUUCACGAAAGGGAGAGUCCUUCUAAACCUAUAUUCUGCUCCACCGCAACUCCCUCACCUAUCCUCAGGCUCACAGUG,0.438
AGAUGCUACUUGUAUCAUUUUGCCCAUAAAUGGAUAAAUAAUUUUAUGCAUAUCAUACCAAAUGUUCCUAAAAAGUAAUCUUUCAAAAAAGUAUAAAAGAGAAACUGGAA,0.704
UUUGUAUUUAUUGUGCCUUACAUAGGAAGGAAGGGACUCAACUGAAUCCCUCCUCCCUCUAAACAGUCCCCCAGAAAACAGGCUGGUGGCCAUGUGCUUUGCAUCUUUCU,0.629
ACUUGCCUCCUCUUGUUUACUGCCUUGUAUUGUAGUUAUGUGUGUAUAUGUCUGUCUUUCUCAUUAGAUUAUACGCUCCUUGUGGGCAGGGUCUGUCUUUUUCACCUUUG,0.697
UGUCACAGACAAAUAUGGGUAGUUUUGUUUAAAUAGGUAAGCAAAAUAUUAUACUUUAUAGCAGUGGAUUACCAACACCUUGACUUCUUUGUUACAGUGCUAACAUCUUU,0.25
AGUUCCAGCUACAACUAAAUACAACGUCCUUUGCACCCCUAGAAUGUCAUUUUGCCCUCAAUCUUGGAAUUUCUCCCAGGGCCCUUGUAGUCUUGUGCUGUCUCCUGUCC,1.15
CCAGAUGCCCUGGUGGAAUGACCUGCCUCUCUGCCGUUUCUGCCAACGUGUUGGUGCUAUAAGCUGCUUCAAAUACCAGUUUGUCUGUAGUGUGUACUCACCUAAUCACU,0.272
CUGGAAAACUAUCAGAAGACAAAGUUUGACACCUUGAUACCCACUCUCUGUGAAUACCUACCCCCUUCUGGCCACGGUGCCAUACCUGUUUCUUCCUGUGACUGUAGAGA,0.526
GCUCGUAUGUCAGGGACAGGUGUUUGGCAGAAGAGACUUCUAGGUUACUGCUAGAUUCCAAUUCAACUGCCUUGUAGCCUGGGAAGCCCAGCAAGUCAUAACCUCCUGUC,0.388

# For quick reference, copied from above (block 3):
Oligonucleotide,fitted relative affinity [z-score]
GACGATTCCCGTTTCGAGACGTGCTAG,1.72
TCAGGTATCGGTATCGGTTAGTGCTAG,10.4
GTTGGGGCGGGGCGGGGTGGGTGCTAG,3.2
CTCCATGAACAGGGCTGATGGTGCTAG,-0.211
TTAGGACTGGGTATCGGTTGGTGCTAG,3.52
GACGATTGCAGACTGGAGACGTGCTAG,-0.491
GACGGTTTCCTACTGCTGCCGTGCTAG,0.892
TCAATTCTCTTTTCACTACTGTGCTAG,2.15
TTAGGTATCCTTTTCCTTCAGTGCTAG,0.732
GACGGACTGCCTTTCCTGACGTGCTAG,-0.219
TTAGGTTTCGGGATTCGGTTAGTGCTA,8.76
TTAGGTTTCAGTTCCGATTAGTGCTAG,7.39
